# Experimental data from different studies.
# Each line is one published result; not all experiments were run side by side. Numbers after ± are the reported error.
SMILES,method,medium,time,pH,temperature,notes,kinetic solubility
O=C(Nc1cccc(-c2nccs2)c1)c1cc([N+](=O)[O-])c(F)cc1F,,phosphate buffer,,pH 7.4,,,2.1 ± 0.1 µM
C=C(NC(=O)c1csc(-c2nc3c(cc2O[C@@H]2O[C@H](CO)[C@@H](O)[C@H](O)[C@H]2O)-c2nc(cs2)C(=O)N[C@@H]([C@@H](C)O)C(=O)N/C(=C\C)c2nc(cs2)C(=O)N[C@H]2C[C@H](O)C(=O)OCc4cccc5[nH]c(c(C)c45)C(=O)SC[C@H](NC(=O)c4csc2n4)c2nc-3cs2)n1)C(N)=O,HPLC,citrate buffer,,pH 6.0,,5% DMSO,0.596 µg/mL
Cc1ccn2c(NC3CCCC3)c(-c3ccc(N(C)C)cc3)nc2c1,shake flask HPLC-UV,sodium phosphate buffer,24 h,pH 7.4,,2% DMSO,0.33 µg/mL
O=C(Nc1cncc(-c2nc3ccccc3o2)c1)c1cc([N+](=O)[O-])c(F)cc1F,,phosphate buffer,,pH 7.4,,,< 0.3 µM
COc1c(-c2ccc3cc(NS(C)(=O)=O)ccc3c2)cc(-n2ccc(=O)[nH]c2=O)cc1C(C)(C)C,chemiluminescent nitrogen detection,water,,pH 7.2,23 °C,,-5.1 log S
c1ccc(-c2nc(Nc3ccn4nccc4c3)c3ccccc3n2)nc1,,Japanese Pharmacopoeia disintegration test solution 2,,pH 6.8,,,2 µg/mL
CN1C(C(=O)Nc2ccccn2)=C(O)c2sc(Cl)cc2S1(=O)=O,,aqueous buffer,90 min,pH 7.4,25 °C,0.1% DMSO,≥ 100 µM
CCN(CC)CCNC(=O)c1cc(S(C)(=O)=O)ccc1OC,,PBS,2 h,pH 7.4,25 °C,,397 µM
c1ccc(-c2nc(N3CCCCCC3)c3ccccc3n2)nc1,,Japanese Pharmacopoeia disintegration test solution 2,,pH 6.8,,,79 µg/mL
CCOC(=O)C(CCCSC)NC(=O)c1ccc(C2CC2)c(Cc2ccc(F)cc2)n1 (centres unmarked),,aqueous buffer with DMSO,,,,,1.4 µg/mL
c1ccc(-c2nc(N3CCC(c4ccccn4)C3)c3ccccc3n2)nc1 (centres unmarked),,Japanese Pharmacopoeia disintegration test solution 2,,pH 6.8,,,88 µg/mL
COc1cc2[nH]c(C)c(-c3ccccc3C)c(=O)c2cc1Cl,,,,pH 7.4,,,6 to 12 µM
O=C(Nc1ccc(Cl)c(Cl)c1)c1cc([N+](=O)[O-])c(F)cc1F,,phosphate buffer,,pH 7.4,,,< 0.3 µM
CCn1cnc2c(N3CCC(c4ccccn4)C3)nc(-c3ccccn3)nc21 (centres unmarked),,Japanese Pharmacopoeia disintegration test solution 2,,pH 6.8,,,83 µg/mL
CCCCCOc1ccc(C2C(C(=O)c3ccc(C)o3)=C(O)C(=O)N2c2cc(C)on2)cc1 (centres unmarked),,PBS,24 h,pH 7.4,21 °C,2.0% DMSO,77.5 µM
COc1cc2[nH]c(C)c(-c3ccc(F)cc3F)c(=O)c2cc1Cl,,,,pH 7.4,,,2 to 6 µM
CS(=O)(=O)c1cnc(NS(=O)(=O)c2ccc(N)cc2)nc1.Cl,,PBS,2 h,pH 7.4,25 °C,,387 µM
CCC(=O)NS(=O)(=O)c1ccc(-c2c(-c3ccccc3)noc2C)cc1,,aqueous buffer,90 min,pH 7.4,25 °C,0.1% DMSO,≥ 100 µM
CC/C=C\C/C=C\C/C=C\C/C=C\C/C=C\C/C=C\CCC(=O)O.Cc1cc(/C=C/C#N)cc(C)c1Nc1ccnc(Nc2ccc(C#N)cc2)n1,,Labrasol ALF,,,,,~150000 µg/mL
c1ccc(OC2CCN(c3nc(-c4ccccn4)nc4ccccc34)C2)cc1 (centres unmarked),,Japanese Pharmacopoeia disintegration test solution 2,,pH 6.8,,,8 µg/mL
COc1cc2[nH]c(C)c(-c3ccc(C)cc3)c(=O)c2cc1Cl,,,,pH 7.4,,,< 2 µM
Cc1ccc(CCC(=O)Nc2nnc(S(N)(=O)=O)s2)cc1,,PBS,,pH 7.4,,,60.2 µM
Cc1ccn2c(Nc3ccc(F)cc3)c(-c3ccccn3)nc2c1,shake flask HPLC-UV,sodium phosphate buffer,24 h,pH 2.0,,2% DMSO,72.9 µg/mL
COc1cc2[nH]c(C)c(-c3cncnc3)c(=O)c2cc1Cl,,,,pH 7.4,,,≥ 20 µM
Cc1[nH]c(C)c(S(=O)(=O)Nc2ccc(C(F)(F)F)c(Cl)c2)c1C(=O)N1CCC(F)(F)C1,,,,,,,89 µM
Oc1c(Br)cc(Br)cc1/C=N/NC(=S)N[C@H]1CC2C=CC1C2 (some centres unmarked),,PBS,24 h,pH 7.4,21 °C,2.0% DMSO,< 0.7 µM
COc1cc2[nH]c(C)c(-c3cccc4c3oc3ccccc34)c(=O)c2cc1Cl,,,,pH 7.4,,,< 2 µM
CCCCCCCCC(=O)c1cc(O)c(O)c(O)c1,,aqueous buffer,90 min,pH 7.4,25 °C,0.1% DMSO,≥ 100 µM
CS(=O)(=O)c1ccc(C(=O)N2CCCCC2)cc1,,PBS,2 h,pH 7.4,25 °C,,305 µM
CCn1cc(Cl)c2c(Cc3ccc(C(F)(F)F)nc3)n(C)nc2c1=O,nephelometry,phosphate buffer,30 min,pH 6.5,,1% DMSO,67 to 140 µM
COc1cc2[nH]c(C)c(-c3ccccc3)c(=O)c2cc1Cl,,,,pH 7.4,,,2 to 6 µM
O=C(Nc1cncc(-c2nc3ccccc3s2)c1)c1cc([N+](=O)[O-])c(F)cc1Cl,,phosphate buffer,,pH 7.4,,,< 1.6 µM
COc1cc2[nH]c(C)c(-c3ccc(C(C)=O)cc3)c(=O)c2cc1Cl,,,,pH 7.4,,,< 2 µM
O=C1NN(c2ccccc2)C(=O)/C1=C/c1ccc(Sc2cccc3ccccc23)o1,,PBS,24 h,pH 7.4,21 °C,2.0% DMSO,< 3 µM
Cc1ccc2nc(-c3ccccn3)c(Nc3ccc4c(c3)OCCO4)n2c1,shake flask HPLC-UV,sodium phosphate buffer,24 h,pH 7.4,,2% DMSO,8.35 µg/mL
O=C(N1CCCCC1)C12CC(c3ccccc3)(C1)C2,,PBS with DMSO,2 h,pH 7.4,25 °C,,272 µM
CCN(CC)CCNC(=O)c1cc(S(C)(=O)=O)cnc1OC,,PBS,2 h,pH 7.4,25 °C,,394 µM
c1ccc(C2CCN(c3nc(-c4ccccn4)nc4ccccc34)C2)cc1 (centres unmarked),,Japanese Pharmacopoeia disintegration test solution 2,,pH 6.8,,,1 µg/mL
CC1(C(F)(F)F)NC(=O)N(c2ccc(F)c(C(F)(F)F)c2)C1=O (centres unmarked),,,,,,,≤ 50 µg/mL
CCN1CCN(c2cc(N3CCN(CC)CC3)nc(NCCNc3ccnc4cc(Cl)ccc34)n2)CC1,,aqueous buffer,90 min,pH 7.4,25 °C,0.1% DMSO,94.4 ± 1.4 µM
COc1cc2[nH]c(C)c(-c3ccc(S(=O)(=O)N(C)C)cc3)c(=O)c2cc1Cl,,,,pH 7.4,,,< 2 µM
Fc1ccccc1Nc1nc(-c2ccccn2)nc2ccccc12,,Japanese Pharmacopoeia disintegration test solution 2,,pH 6.8,,,7 µg/mL
N#C/C(=C\c1ccc(O)c(O)c1)S(=O)(=O)c1ccccc1,,PBS,24 h,pH 7.4,21 °C,2.0% DMSO,208 µM
Cc1ccc(-c2nc3ccccc3s2)cc1NC(=O)c1cc([N+](=O)[O-])c(NCCN(C)C)cc1Cl,,phosphate buffer,,pH 7.4,,,< 1.6 µM
O=C(Nc1cnc2ccccc2c1)c1cc2[nH]ccc2cc1Cl,,aqueous buffer,90 min,pH 7.4,25 °C,0.1% DMSO,10.1 ± 1.9 µM
O=C(O)c1ccc(-n2cccc2/C=C2/NC(=O)N(c3cccc(Cl)c3)C2=O)cc1,,PBS,24 h,pH 7.4,21 °C,2.0% DMSO,83.7 µM
COc1cccc2c(Nc3ccc4[nH]c(C(=O)N/N=C/c5ccc(SC)cc5)cc4c3)cc(C)nc12,,aqueous buffer,90 min,pH 7.4,25 °C,0.1% DMSO,6 ± 1.4 µM
c1ccc(-c2nc(N3CCOCC3)c3ccccc3n2)nc1,,Japanese Pharmacopoeia disintegration test solution 2,,pH 6.8,,,83 µg/mL
COC(=O)c1cn(C)c2ccc(-c3cccnc3)cc12,,aqueous buffer,90 min,pH 7.4,25 °C,0.1% DMSO,≥ 100 µM
Cc1ccc(-c2nc3ccccc3s2)cc1NC(=O)c1cc([N+](=O)[O-])c(NCCN)cc1Cl,,phosphate buffer,,pH 7.4,,,< 1.6 µM
